Measured values gathered from unrelated publications.
Numbers after ± are the reported error. Values after ≈ are worked out from the molar mass of the structure shown.

CC(C)n1ccn2cc(C(=O)NCc3ccc(F)cc3F)c(=O)c(O)c2c1=O  EC50 (human immunodeficiency virus 1; single-round vector infection; integrase S230N): 4.8 ± 0.2 nM
CC[C@@H](C)[C@@H](NC(=O)[C@@H](CCCCN)NC(=O)[C@@H](CCCCN)NC(=O)[C@@H](CC(C)C)NC(=O)[C@@H](Cc1c[nH]c2ccccc12)NC(=O)CN)C(=O)NCC(=O)N[C@H](CCCCN)C(=O)N[C@H](CCCCN)C(=O)N[C@@H](C(=O)N[C@H](CCC(=O)O)C(=O)N[C@H](CCCNC(=N)N)C(=O)N[C@@H](C(=O)NCC(=O)N[C@H](CCC(N)=O)C(=O)N[C@H](Cc1c[nH]cn1)C(=O)N[C@@H](C(=O)N[C@H](CCCNC(=N)N)C(=O)N[C@H](CC(=O)O)C(=O)N[C@H](C)C(=O)N[C@@H](C(=O)N[C@@H](C(=O)N[C@H](CCC(N)=O)C(=O)N[C@@H](C(=O)N[C@@H](C(=O)NCC(=O)N[C@@H](C(=O)N[C@H](C)C(=O)N[C@H](CCC(N)=O)C(=O)N[C@H](CCC(N)=O)C(=O)N[C@H](C)C(=O)N[C@H](C)C(=O)N[C@H](CC(N)=O)C(=O)N[C@@H](C(=O)N[C@H](C)C(=O)N[C@H](C)C(=O)N[C@@H](C(=O)N[C@H](CC(C)C)C(=O)N[C@H](CCCCN)C(N)=O)[C@H](C)O)C(C)C)C(C)C)[C@H](C)CC)[C@H](C)O)[C@H](C)CC)[C@H](C)O)[C@H](C)O)C(C)C)[C@H](C)CC  MIC (Acinetobacter baumannii; isolate RKI 19/09, CAMHB): 128 µg/mL (≈ 30.5 µM)
CC[C@H](C)[C@H](NC(=O)[C@H](C)NC(=O)[C@@H](NC(=O)[C@@H](NC(=O)[C@H](CC(C)C)NC(=O)[C@H](CCCCN)NC(=O)[C@@H](N)CCCCN)[C@@H](C)CC)[C@@H](C)O)C(=O)N[C@@H](CC(C)C)C(=O)N[C@@H](CCCCN)C(=O)N[C@@H](CCCCN)C(=O)N[C@H](C(=O)N[C@@H](CCCNC(=N)N)C(=O)N[C@@H](CCC(=O)O)C(=O)N[C@@H](CCCCN)C(=O)N[C@@H](CCCCN)C(=O)N[C@@H](CCCCN)C(=O)N[C@@H](CCC(=O)O)C(=O)N[C@@H](CS)C(=O)N[C@@H](CC(C)C)C(=O)N[C@H](C(=O)O)C(C)C)[C@@H](C)O  time to peak (TTX-sensitive sodium channel; resurgent sodium current, open-channel blocker, whole-cell patch clamp; mouse hippocampal CA3 neurons; 200 µM intracellular, 22 °C): 1.2 ± 0.2 ms
Cc1cc(/C=C/C#N)cc(C)c1Nc1nc(Nc2ccc(C#N)cc2)ncc1N  EC50 (HIV-1; viral replication, single-round infection; RT mutant E138K): 2.1 ± 0.1 nM
CC[C@H](C)[C@H](NC(=O)[C@H](CCCCN)NC(=O)[C@H](Cc1c[nH]c2ccccc12)NC(=O)[C@H](CC(C)C)NC(=O)[C@H](CC(C)C)NC(=O)[C@H](CC(=O)O)NC(=O)[C@@H](NC(=O)[C@H](CCCNC(=N)N)NC(=O)[C@H](CCC(=O)O)NC(=O)[C@H](CCCNC(=N)N)NC(=O)[C@H](CC(=O)O)NC(=O)[C@H](CC(C)C)NC(C)=O)[C@@H](C)CC)C(=O)N[C@@H](C)C(=O)N[C@@H](CCCNC(=N)N)C(=O)N[C@@H](C)C(=O)NCC(=O)N[C@@H](C)C(=O)N[C@@H](CCCNC(=N)N)C(=O)N[C@@H](CO)C(=O)N[C@@H](C)C(=O)N[C@H](C(=O)NCC(N)=O)C(C)C  membrane partition coefficient (amide-selective NMR; POPC/POPG/chol 7:2:1 SUV; 15 µM, pH 7.5, 25 °C): 52000 ± 1000
O=C(NC1CCN(c2ncnc3[nH]cnc23)CC1)c1cccc(NS(=O)(=O)c2ccc(C(F)(F)F)cc2)c1  inhibition (monkeypox virus E1/E12; 200 µM): 30.4%
N=C(N)NCc1cn([C@@H]2[C@@H](OCCn3cc(-c4cc(OCCOCCO)c(C#Cc5cc(OCCOCCO)c(C#Cc6cc(OCCOCCO)c(-c7cn(CCO[C@H]8O[C@H](CO)[C@@H](O)[C@H](O)[C@@H]8n8cc(CNC(=N)N)nn8)nn7)cc6OCCOCCO)cc5OCCOCCO)cc4OCCOCCO)nn3)O[C@H](CO)[C@@H](O)[C@@H]2O)nn1.O=CO.O=CO  inhibition (L-SIGN (human); viral trans-infection; Jurkat expressing L-SIGN, Ebola virus; 0.5 µM, rVSV-luc pseudovirus): 84%
CC[C@H](C)[C@H](NC(=O)[C@H](CCCN)NC(=O)[C@H](CC(=O)O)NC(=O)[C@H](CC(C)C)NC(=O)C(C)(CC(C)C)NC(=O)[C@@H](NC(=O)[C@H](CO)NC(=O)[C@H](Cc1ccc(O)cc1)NC(=O)[C@H](CC(=O)O)NC(=O)[C@H](CO)NC(=O)[C@@H](NC(=O)[C@H](Cc1ccccc1)NC(=O)[C@@H](NC(=O)CNC(=O)[C@H](CCC(=O)O)NC(=O)C(C)(C)NC(=O)[C@@H](N)Cc1ccc(O)cc1)[C@@H](C)O)[C@@H](C)CC)[C@@H](C)CC)C(=O)N[C@@H](Cc1c[nH]cn1)C(=O)N[C@@H](CCC(N)=O)C(=O)NC(C)(C)C(=O)N[C@@H](CC(=O)O)C(=O)N[C@@H](Cc1ccccc1)C(=O)N[C@H](C(=O)N[C@@H](CCC(=O)O)C(=O)N[C@@H](Cc1ccc(O)cc1)C(=O)N[C@@H](CCCCNC(=O)COCCOCCNC(=O)COCCOCCNC(=O)CC[C@H](NC(=O)CCCCCCCCCCCCCCCCCCC(=O)O)C(=O)O)C(=O)N[C@@H](CC(C)C)C(=O)N[C@@H](CCC(=O)O)C(=O)NCC(=O)NCC(=O)N1CCC[C@H]1C(=O)N[C@@H](CO)C(=O)N[C@@H](CO)C(=O)NCC(=O)N[C@@H](C)C(=O)N1CCC[C@H]1C(=O)N1CCC[C@H]1C(=O)N1CCC[C@H]1C(=O)N[C@@H](CO)C(N)=O)C(C)C (stereo partly shown)  fasting glucose change (human, type 2 diabetes; 25 mg weekly, day 29, 4 weeks dosing; reference: placebo): -2.2 mmol/L
COCCCCCCN1CCn2cc(C(=O)NCc3ccc(F)cc3F)c(=O)c(O)c2C1=O  EC50 (human immunodeficiency virus 1; single-round vector infection; integrase N155H): 6.9 ± 0.5 nM
Cc1cc(/C=C/C#N)cc(C)c1-n1cnc2cnc(Nc3ccc(C#N)cc3)nc21  EC50 (HIV-1; viral replication, single-round infection; RT mutant K101P): 4.9 ± 2.2 nM
COCCCN1CCn2cc(C(=O)NCc3ccc(F)cc3F)c(=O)c(O)c2C1=O  EC50 (human immunodeficiency virus 1; single-round vector infection; integrase R263K): 8.6 ± 0.6 nM
Nc1ccn(C2CCC(OC(C(=O)O)P(=O)(O)O)C2)c(=O)n1 (racemic)  fold resistance (HIV-1 reverse transcriptase M184V; enzyme activity, inhibitor; added: poly(rI)·oligo(dC), [3H]dCTP; reference: mutant over wild type): 11 fold
CC(C)N1CCn2cc(C(=O)NCc3ccc(F)cc3F)c(=O)c(O)c2C1=O  EC50 (HIV-1; viral replication, single-round vector infection; IN G140A/Q148K): 243 ± 55.6 nM
CC[C@H](C)[C@@H]1NC(=O)[C@H](CC(=O)O)NC(=O)[C@H]([C@@H](C)O)NC(=O)[C@@H]2CSSC[C@@H]3NC(=O)[C@H](CC(C)C)NC(=O)[C@H](CC(N)=O)NC(=O)[C@H](CC(C)C)NC(=O)[C@H](CCCNC(=N)N)NC(=O)[C@H](Cc4ccc(O)cc4)NC(=O)[C@H](CC(N)=O)NC(=O)[C@H](CCSC)NC(=O)[C@H](CO)NC(=O)[C@H]([C@@H](C)O)NC(=O)[C@H](CCCNC(=N)N)NC(=O)[C@H](CSSC[C@H](NC(=O)[C@H]([C@@H](C)O)NC(=O)[C@H](CCCCN)NC(=O)[C@H](CCCNC(=N)N)NC3=O)C(=O)NCC(=O)N[C@@H](CO)C(=O)N[C@H](C(=O)O)CSSC[C@H](NC(=O)[C@@H](NC(=O)[C@@H](N)CCCNC(=N)N)[C@@H](C)O)C(=O)N[C@@H](CCCCN)C(=O)N[C@@H](CC(=O)O)C(=O)N[C@@H](CC(C)C)C(=O)N[C@@H]([C@@H](C)CC)C(=O)N3CCC[C@H]3C(=O)N[C@@H](C(C)C)C(=O)N[C@@H](CO)C(=O)N[C@@H](CCC(=O)O)C(=O)N2)NC(=O)[C@H](CCCNC(=N)N)NC1=O  kon (KcsA-Shaker channel; two-electrode voltage clamp; Xenopus oocytes; 0 mV): 380000 ± 50000 M⁻¹ s⁻¹
COCCN1CCn2cc(C(=O)NCc3ccc(F)cc3F)c(=O)c(O)c2C1=O  EC50 (human immunodeficiency virus 1; single-round vector infection; integrase N155H): 6.5 ± 1 nM
CCCCCCCCCCCCCCCC(=O)N[C@@H](CCC(=O)NCCOCCOCCC(=O)NCCOCCOCCC(=O)NCCCC[C@H](NC(=O)[C@H](CC(=O)O)NC(=O)[C@H](CC(C)C)NC(=O)[C@H](Cc1ccc(O)cc1)NC(=O)[C@H](CCCCN)NC(=O)[C@H](CO)NC(=O)[C@H](Cc1ccc(O)cc1)NC(=O)[C@H](CC(=O)O)NC(=O)[C@H](CO)NC(=O)[C@@H](NC(=O)[C@H](Cc1ccccc1)NC(=O)[C@@H](NC(=O)CNC(=O)[C@H](CCC(N)=O)NC(=O)[C@@H](CO)NC(=O)[C@@H](N)Cc1c[nH]cn1)[C@@H](C)O)[C@@H](C)O)C(=O)N[C@@H](CCCNC(=N)N)C(=O)N[C@@H](CCCNC(=N)N)C(=O)N[C@@H](C)C(=O)N[C@@H](CCC(N)=O)C(=O)N[C@@H](CC(=O)O)C(=O)N[C@@H](Cc1ccccc1)C(=O)N[C@H](C(=O)N[C@@H](CCC(N)=O)C(=O)N[C@@H](Cc1c[nH]c2ccccc12)C(=O)N[C@@H](CC(C)C)C(=O)N[C@@H](CC(C)C)C(=O)N[C@@H](CC(N)=O)C(=O)N[C@H](C(=O)NCC(=O)NCC(=O)N1CCC[C@H]1C(=O)N[C@@H](CO)C(=O)N[C@@H](CO)C(=O)NCC(=O)N[C@@H](C)C(=O)N1CCC[C@H]1C(=O)N1CCC[C@H]1C(=O)N1CCC[C@H]1C(=O)N[C@@H](CO)C(N)=O)[C@@H](C)O)C(C)C)C(=O)O  α-SMA, TGF-β and p-Smad2/3 (Western blot; C57BL/6J mouse CCl4 model, liver; dose not given): decreased
